Measurements from different studies.
Protocols differ between the studies behind these lines. Several values in a cell are separate wells, animals, samples, runs or records. Numbers after ± are the reported error. In brackets after ≈: the same amount, converted by molar mass.

Molecule	test	test system	conditions	scale	quantity	result
CCc1cccc(CC)c1N(COC)C(=O)CCl	LC-MS/MS	herbicide solution	2 h, 23 °C, together with: 365 nm UV exposure		remaining amount	0.58 ± 0.01%
CC[C@H](C)[C@H](NC(=O)[C@@H](N)CCCNC(=N)N)C(=O)N[C@H](C(=O)N1CCC[C@H]1C(=O)N[C@@H](C)C(N)=O)C(C)C		human, plasma	intravenous, 3 mg/kg, single dose, healthy volunteers		AUC(0-t)	1.04 µg·h/mL
CCCCCOc1ccc(-c2cc(-c3ccc(C(=O)N[C@H]4C[C@@H](O)[C@@H](O)NC(=O)[C@@H]5[C@@H](O)[C@@H](C)CN5C(=O)[C@H]([C@H](O)CC(N)=O)NC(=O)[C@H]([C@H](O)[C@@H](O)c5ccc(O)c(OS(=O)(=O)O)c5)NC(=O)[C@@H]5C[C@@H](O)CN5C(=O)[C@H]([C@@H](C)O)NC4=O)cc3)no2)cc1		human children aged 6-11 years, plasma	intravenous, 4.5 mg/kg once daily, day 7, geometric mean		AUCtau	276 µg·h/mL
[123I]c1cncc(OC[C@@H]2CCN2)c1	SPECT	human, hippocampus	intravenous bolus, 2.1 mCi	reference: tissue over plasma	tissue/plasma ratio	14.6
CC(=O)N[C@@H](Cc1c[nH]c2ccccc12)C(=O)N[C@H](C(=O)N[C@@H](Cc1c[nH]c2ccccc12)C(=O)N[C@@H](CC(N)=O)C(=O)N1CCC[C@H]1C(=O)N[C@@H](C)C(=O)N[C@H](C(=O)NCC(=O)N[C@@H](CCCCN)C(=O)N[C@@H](Cc1c[nH]c2ccccc12)C(=O)N[C@H](C(=O)N[C@@H](Cc1c[nH]c2ccccc12)C(N)=O)C(C)C)[C@@H](C)O)C(C)C	circular dichroism	phosphate buffer	pH 6.5		Tm	> 100 °C and 101 °C
O=c1[nH]c(Cc2ccccn2)nc2c1cnn2C1CCOCC1		male human, plasma	oral, 2 mg, single dose		half-life	59.7 min
O=C(O)c1cc(O)c(O)c(O)c1		zebrafish embryo AB wild type	immersion semi-static, 96 h		LC50	24 µg/mL (≈ 141 µM)
COc1ccc(C[C@@H]2NC(=O)[C@H]([C@@H](C)O)NC(=O)[C@@H]3[C@@H]4CCN3C(=O)[C@@H]3Cc5cn(c6ccc(F)cc56)CCCCCCN(Cc5ccc(cc5)CCNC(=O)[C@]5(C)CCCN5C2=O)C(=O)CCC(=O)N[C@@H](C)C(=O)N[C@H](CNC(=O)CCCCC[N+](C)(C)C)C(=O)N[C@@H](Cc2cccc(c2)CNC(=O)CO4)C(=O)N3)cc1		fasted healthy humans, plasma	oral, 300 mg single dose, with 1800 mg Labrasol, geometric mean		Vz/F	15900 L
colistin	dynamic light scattering	water	25 °C		CMC	1.5 mM
CN[C@@](C)(C[18F])C(=O)O		SCID mouse U87 xenograft, heart	15 min, post injection		tissue uptake	4.4 ± 1.1 %ID/g
CC(C)C[C@@H](NC(=O)[C@@H](Cc1ccccc1)NC(=O)[C@H](N)Cc1ccccc1)C(=O)N[C@H](CCCCN)C(=O)N1CCC(N)(C(=O)O)CC1	item: total radioactivity	healthy human subjects	intravenous, time not given		total dose recovery, urine and feces	91.8%

For quick reference, copied from above:
Molecule	test	test system	conditions	scale	quantity	result
O=c1[nH]c(Cc2ccccn2)nc2c1cnn2C1CCOCC1		male human, plasma	oral, 2 mg, single dose		half-life	59.7 min
